Measured values of several laboratories.
“And” joins repeats or separate records; there may be more than shown.
Target: NUAK family SNF1-like kinase 1 (NUAK1, Homo sapiens, UniProt O60285)

SMILES = C=CC(=O)N1Cc2nc(-c3cc(-c4cc(Cl)cnc4Cl)c(F)cc3F)n(-c3ccncn3)c2C1; test = cell-free assay, inhibitor; setting = 1 µM; endpoint = inhibition; value = 1.8%
SMILES = Cc1cnc2nc1Nc1cccc(c1)COC/C=C/COCc1cc(ccc1OCCN1CCOCC1)N2; test = cell-free assay; setting = 0.1 µM; endpoint = remaining signal; value = 61%
SMILES = O=C(Cc1ccc(OCc2ccccc2)cc1)NC1(C(=O)O)CCN(C(=O)c2ccc(-c3cccc(Cl)c3)cc2)CC1; test = enzyme activity, inhibitor; setting = 10 µM; endpoint = activity vs control; value = 113%
SMILES = CC(C)=CC1OC(C)(C)C2C=C3C(=O)C(Cl)=CC(O)C3C3C(O)C4OC4C(=O)C132 (stereo not shown); test = cell-free assay, competition with immobilised ligand; setting = 10 µM; endpoint = remaining binding; value = 96%
SMILES = CN1CCN(Cc2ccc(-c3ccc(CO[C@H]4CCC[C@@H]4NC(=O)c4cc(-c5cnn(C)c5)cnc4N)cc3)cc2)CC1; test = enzyme activity, inhibitor; setting = 0.1 µM; endpoint = inhibition; value = -17%
SMILES = NC(=O)[C@@H](O)C[C@H]1CCc2sc3ncnc(O[C@H]4CC[C@H](N5CCOCC5)CC4)c3c21; test = enzyme activity, inhibitor; setting = 10 µM; endpoint = inhibition; value = 21%
SMILES = O=C=[N][Ru-4]123([n]4c5ccc(O)cc5c5c6c(c7cc(F)c[n+]1c7c54)C(=O)NC6=O)[S+]1CC[S+]2CC[S+]3CC1 (stereo not shown); test = enzyme activity; setting = 100 nM, human enzyme, with: 10 µM ATP; scale = relative to: untreated; endpoint = remaining activity; value = 88%
SMILES = COc1ccc(NC(=O)Nc2ccc3c(c2)C(=O)N(C(C)CO)CC(C)C(CN(C)Cc2ccc4c(c2)OCO4)O3)cc1 (stereo not shown); test = kinase activity, KinaseProfiler; setting = 0.03 µM, species human; scale = relative to: control; endpoint = remaining activity; value = 108%
SMILES = Cc1cccc(O[C@H]2CCC[C@@H](C(C)CNCc3ccncc3)C2)c1 (relative stereo); test = kinase activity, kinome panel screening; setting = 10 µM; endpoint = inhibition; value = 3%
SMILES = COc1cc(Nc2nc(C)cc(-c3cnn4nc(OC)ccc34)n2)cc(C(F)(F)F)c1; test = inhibitor; setting = 1 µM, ARK5; scale = relative to: control; endpoint = remaining activity; value = 100%
SMILES = C=CC(=O)N1CCc2ccc(-n3c(=O)ccc4cnc5ccc(-c6cnn(C)c6)cc5c43)cc21; test = KINOMEscan; setting = 1 µM; scale = relative to: DMSO control; endpoint = remaining binding; value = 100%
SMILES = COc1c(Cl)cccc1Nc1c(-c2ccncc2C#C[C@@]2(C)CCCN2C(=O)/C=C/CN(C)C)[nH]c2c1C(=O)NCC2; test = cell-free assay, competition with immobilised ligand; setting = 3 µM; endpoint = remaining binding; value = 100%
SMILES = COc1c(OCCCN2CCOCC2)ccc2c1N=C(NC(=O)c1cnc(N)nc1)N1CCN=C21; test = kinase activity, inhibitor; setting = 1 µM; scale = relative to: untreated control; endpoint = remaining activity; value = 96%
SMILES = COCC12C(=O)NC3C4(C(OC)CC1O)C1CC5(O)C(OC)C(O)C(OC(C)=O)(C1C5OC(=O)c1ccccc1)C3(O)C(OC)C24 (stereo not shown); test = kinase activity, inhibitor, ProQinase kinase profiling; setting = 25 µM; scale = relative to: control; endpoint = remaining activity; value = 93% and 85%
SMILES = CN1CC[C@@H](COc2cnc(C#N)cc2-c2ccn3nc(NC(=O)C4CC4)cc3c2)C1; test = enzyme activity, inhibitor; setting = 1 µM; endpoint = inhibition; value = 17%
SMILES = C=CC(=O)Nc1cccc(-c2cnc3[nH]cc(C(=O)NC(C)(C)C)c3n2)c1; test = kinase activity; setting = 0.1 µM; endpoint = inhibition; value = 92%

For quick reference, copied from above:
SMILES = C=CC(=O)N1CCc2ccc(-n3c(=O)ccc4cnc5ccc(-c6cnn(C)c6)cc5c43)cc21; test = KINOMEscan; setting = 1 µM; scale = relative to: DMSO control; endpoint = remaining binding; value = 100%
